Experimental data from different studies.
CDC7 with cyclin B1: Cell division cycle 7-related protein kinase, with cyclin B1 (CDC7, Homo sapiens, UniProt O00311)
UniProt O00311, sequence (whole entry, looked up): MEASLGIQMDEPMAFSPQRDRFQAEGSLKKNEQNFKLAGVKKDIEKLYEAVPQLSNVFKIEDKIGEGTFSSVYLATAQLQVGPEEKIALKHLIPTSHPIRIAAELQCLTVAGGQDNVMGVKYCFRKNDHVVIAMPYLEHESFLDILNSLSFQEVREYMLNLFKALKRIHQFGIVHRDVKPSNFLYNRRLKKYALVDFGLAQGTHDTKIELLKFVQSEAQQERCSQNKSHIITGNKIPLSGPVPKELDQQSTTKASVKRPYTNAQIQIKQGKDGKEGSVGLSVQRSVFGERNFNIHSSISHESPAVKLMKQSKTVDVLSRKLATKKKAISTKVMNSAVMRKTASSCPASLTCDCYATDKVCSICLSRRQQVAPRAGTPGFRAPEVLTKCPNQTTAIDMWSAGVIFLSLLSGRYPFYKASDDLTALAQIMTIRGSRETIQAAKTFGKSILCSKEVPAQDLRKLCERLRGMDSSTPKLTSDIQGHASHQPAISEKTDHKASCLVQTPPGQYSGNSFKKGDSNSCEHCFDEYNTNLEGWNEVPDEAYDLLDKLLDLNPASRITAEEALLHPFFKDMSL
CDC7 with DBF4: Cell division cycle 7-related protein kinase, with DBF4 (CDC7, Homo sapiens, UniProt O00311)

SMILES	target	assay	conditions	scale	quantity	result
CN1CC(Oc2cnc(C#N)cc2-c2ccn3nc(NC(=O)C4CC4)cc3c2)C1	CDC7 with cyclin B1	inhibitor, KinaseProfiler panel	1 µM	–	inhibition	6%
CNc1ncc2c(/C=C/C(=O)N3CCC(OC)CC3)nn(Cc3cccc(C(F)(F)F)c3)c2n1	CDC7 with DBF4	inhibitor	1 µM	reference: control	remaining activity	103%
COc1ccc2oc(-c3ccc4nc(N)oc4c3)c/c(=N\c3ccccc3NC(=O)CCN)c2c1	CDC7 with cyclin B1	kinase activity	1 µM	reference: untreated control	remaining activity	97%
CC(C)(O)[C@H]1CC[C@H](Nc2ccc3ncc(-c4cccc(C(F)(F)F)c4)n3n2)CC1	CDC7 with DBF4	enzyme activity, inhibitor	1 µM, with: 10 µM ATP	reference: DMSO	remaining activity	104%
COc1cc(-c2cncc3c2CN(C)Cc2cc(N4CCNCC4)ccc2-3)cc(OC)c1OC	CDC7 with cyclin B1	enzyme activity	1 µM, with: 10 µM ATP	reference: DMSO	remaining activity	117%
CC(C)(C)c1nc2c(s1)c1nc(N)ncc1c1ccc(NS(=O)(=O)c3c(F)cccc3F)c(F)c12	CDC7 with DBF4	kinase activity, radiometric 33PanQinase	1 µM	reference: DMSO	remaining activity	95%
CC/C(=N\NC(=O)NCc1cccc(O)c1)c1ccc(O)c(C)c1O	CDC7 with DBF4	kinase activity	0.1 µM	–	inhibition	-0.4%
Cc1ccc(C(=O)NCc2ccsc2)cc1C#Cc1cn(C(C)C)c2ncnc(N)c12	CDC7 with cyclin B1	kinase activity	1 µM, with: ATP at Km	–	remaining activity	88%

Repeated from above:
SMILES	target	assay	conditions	scale	quantity	result
CNc1ncc2c(/C=C/C(=O)N3CCC(OC)CC3)nn(Cc3cccc(C(F)(F)F)c3)c2n1	CDC7 with DBF4	inhibitor	1 µM	reference: control	remaining activity	103%
